# Assay results gathered from unrelated publications.
# “And” joins repeats or separate records; there may be more than shown. Numbers after ± are the reported error.
SMILES,assay,system,conditions,scale,endpoint,value
O=C1CCC(N2Cc3cc(C(=O)O)c(F)cc3C2=O)C(=O)N1 (centres unmarked),,"cynomolgus monkey, male","oral, 0.3 mg/kg parent drug, 24 h",,plasma concentration,0.34 ± 0.16 ng/mL
CCN(CC)c1ccc2c(c1)O[B-]1(c3ccccc3C#N)OC(=O)C(c3ccccc3)=N[N+]1=C2 (centres unmarked),,toluene,,,molar absorption coefficient,54000 M⁻¹ cm⁻¹
CN(O)C(=O)CCC(=O)NCCCN(CCCCN(CCCNC(=O)CCC(=O)N(C)O)C(=O)CCC(=O)N(C)O)C(=O)CCC(=O)N(C)O.[89Zr],radio-TLC,aqueous buffer,"3 d, pH 7.2, 37 °C, 89Zr-labelled complex, together with: CuCl2 10-fold excess",,intact complex,99.5 ± 0.9%
CCC1CNC(CC)CN(C(C(=O)[O-])c2ccc(C(=O)[O-])cc2)C(CC)CN(CC(=O)[O-])C(CC)CN1.[Mn+2] (centres unmarked),ICP-MS,"BALB/c mouse, kidney","intravenous, 0.05 mmol/kg, 30 min, without anaesthesia",,Mn content,2.39 ± 0.23 µg/g
O=C(NS(=O)(=O)c1cccs1)c1cc2ccccc2n1Cc1ccc(Br)c2ccccc12,,"KM mouse, chronic hyperuricaemia model","dose not given, day 15",,body weight,32.6 g and 35.2 g and 29.8 g and 31.2 g and 34.4 g and 37 g
CCCCN1C(=O)c2cccc3c(NCCCCCCN4CCOCC4)ccc(c23)C1=O,,methanol,,,molar extinction coefficient,13700 M⁻¹ cm⁻¹
O=C(O)/C=C\c1cc2ccoc2cc1O[C@@H]1O[C@H](CO)[C@@H](O)[C@H](O)[C@H]1O,,"rat, plasma","oral, dose not given, dosed as combined Eu and Pc extracts",relative to: single extracts,Cmax decrease,259 ± 144 ng/mL
C=CC(=O)Nc1cc(Nc2nccc(-c3c[nH]c4ccccc34)n2)c(OC)cc1N(C)CCN(C)C,storage stability,human plasma,"24 h, -80 °C, low QC level",,recovery,93.7%
CC(C)[C@H](NC(=O)[C@H](Cc1c[nH]c2ccccc12)NC(=O)[C@H](CCCNC(=N)N)NC(=O)[C@H](CCCNC(=N)N)NC(=O)[C@@H](NC(=O)[C@@H](NC(=O)[C@H](CCCNC(=N)N)NC(=O)[C@@H](NC(=O)[C@@H](NC(=O)[C@H](CCCNC(=N)N)NC(=O)[C@H](CCCNC(=N)N)NC(=O)[C@@H](NC(=O)[C@H](Cc1c[nH]c2ccccc12)NC(=O)[C@H](CCCNC(=N)N)NC(=O)[C@H](CCCNC(=N)N)NC(=O)[C@@H](NC(=O)[C@H](CCCNC(=N)N)NC(=O)[C@H](CCCNC(=N)N)NC(=O)[C@@H](NC(=O)[C@H](Cc1c[nH]c2ccccc12)NC(=O)[C@H](CCCNC(=N)N)NC(=O)[C@@H](N)CCCNC(=N)N)C(C)C)C(C)C)C(C)C)C(C)C)C(C)C)C(C)C)C(C)C)C(=O)N[C@@H](CCCNC(=N)N)C(=O)N[C@@H](CCCNC(=N)N)C(=O)O,dipstick,"CD1 mouse, urine","intravenous, 15 mg/kg, 6 h, [14C]-labelled compound",,protein,30 mg/dL
CC(C)[C@@H]1NC(=O)[C@@H](CCCNC(=N)N)NC(=O)[C@H]([C@@H](C)O)NC(=O)[C@@H](CCCN)NC(=O)[C@H](Cc2ccccc2)NC(=O)[C@@H](Cc2cccc(F)c2)NC1=O,haemolysis,human,100 µM,,haemolysis,< 10%
COc1cc(-c2cc(=O)c3ccc(OCCCn4c(Cl)nc5ccccc54)cc3o2)cc(OC)c1OC,,"C57BL/J mice, healthy, serum","intravenous, 10 mg/kg every other day, 10 days",,AST,203 ± 44.2 U/L
C=CC(=O)N1CCCC(n2c(=O)c3ncccc3n(Cc3ccc(Oc4ccccc4)cc3)c2=O)C1 (centres unmarked),,"BALB/c mice, male, plasma","intraperitoneal, 200 mg/kg, 1 h",,plasma concentration,91000 ng/mL
CCC1C=C(C)C(O)C(C)CC(OC)C2OC(O)(C(=O)C(=O)N3CCCCC3C(=O)OC(C(C)=CC3CCC(O)C(OC)C3)C(C)C(O)CC1=O)C(C)CC2OC (centres unmarked),,"C57BL/6 mouse, blood","topical, dose not given, 6 h, daily dosing for 4 days",,blood concentration,not detected
C/C(N)=N/C(=N\S(=O)(=O)c1ccc(C(F)(F)F)cc1)N1C[C@H](c2ccccc2)C(c2ccc(Cl)cc2)=N1,,"Sprague-Dawley rat male, plasma","oral, 3 mg/kg",,oral bioavailability,42.7%
CCCCCCCOc1ccc(CC[C@](N)(CO)COP(=O)(O)O)cc1C(F)(F)F,,"healthy men, urine","oral, 0.125 mg once daily, day 1, fed state",relative to: dose,urinary excretion (0-24 h),0%
O=C(O)CCCOc1ccc([18F])cc1-c1cc(-c2ccccc2C(F)(F)F)n(-c2ccccc2)n1,OLINDA/EXM from mouse data,"human adults, uterus",,,absorbed dose,11.2 µGy/MBq
CCCCN1C(=O)c2cccc3c(NCCCCCCCCN4CCOCC4)ccc(c23)C1=O,,dioxane,,,molar extinction coefficient,11200 M⁻¹ cm⁻¹
C[C@@H](Nc1c(-c2c(F)cc(C#N)cc2F)c(Cl)nc2ncnn12)C(C)(C)C,ELISA,"5XFAD transgenic mice, cortex","intraperitoneal, 1 mg/kg twice weekly, 4 weeks",,insoluble Aβ42 level,decreased
CC(C)(C)C(=O)Nc1ccc2[nH]c(CN3CCC(N(CCCN4CCOCC4)CC4OC(n5cnc6c(N)ncnc65)C(O)C4O)CC3)nc2c1 (centres unmarked),,"male Sprague-Dawley rat, plasma","intravenous, 20 mg/kg, 4 h",,concentration,6 ng/mL
CCCCN1C(=O)c2cccc3c(NCCN4CCOCC4)ccc(c23)C1=O,,DMSO,,,molar extinction coefficient,7840 M⁻¹ cm⁻¹
O=C([O-])CN1CCN(CC(=O)[O-])CCN(C(CO)C(O)CO)CCN(CC(=O)[O-])CC1.[Dy+3] (centres unmarked),,"cynomolgus monkey, muscle","dose not given, day 58, PK group",,lanthanide tissue concentration,0.072 ± 0.1 nmol/g
CN1CCC[C@]1(C)/C=C/S(=O)(=O)NC(=O)Nc1c2c(cc3c1CCC3)CC=C2,,"human, plasma","oral, 100 mg twice daily of parent drug, day 14, metabolite of dosed drug",,AUC(0-t),1220 µg·h/mL
CCCCN1C(=O)c2cccc3c(NCCCCCCCCCCN4CCOCC4)ccc(c23)C1=O,,ethyl acetate,,,molar extinction coefficient,13200 M⁻¹ cm⁻¹
COCC1CN(C2CCN(c3cc(OC)c(Nc4ncc(Br)c(Nc5ccc6c(c5P(C)(C)=O)OCCO6)n4)cc3C)CC2)C1,,"EGFR-mutant NSCLC patients, plasma","oral, 150 mg multiple doses, median",,Tmax at steady state,2.98 h
CCC(C(=O)Nc1ccc(C(N)=O)c(F)c1)n1cc(OC)c(-c2cc(Cl)ccc2-n2cc(C(F)(F)F)nn2)cc1=O (centres unmarked),,healthy male humans,"50 mg, together with: omeprazole",,drug-related adverse events,0%
C=C(NC(=O)c1csc(-c2nc3c(cc2O)-c2nc(cs2)C(=O)NC(C(C)O)C(=O)NC(=C(C)OC)c2nc(cs2)C(=O)NC2c4nc(cs4)C(=O)NC(COC(=O)c4c5c6c(cccc6n4O)COC(=O)C(OC4CC(C)(O)C(N(C)C)C(C)O4)C2OC5)c2nc-3cs2)n1)C(N)=O (centres unmarked),,"Sprague-Dawley rats, both sexes, faeces","intravenous, 6 mg/kg, 48 h",relative to: dose,faecal excretion unchanged,0.58%
CCn1nc(Cl)c2c1-c1cnc(N)c(c1)O[C@H](C)c1cc(F)ccc1-c1nn(C)cc1C2,,"Balb/c nude mouse, female, plasma","0.5 mg/kg, single dose, 1 h",,free plasma concentration,6.87 nM
O=C(Nc1cnccc1-c1ccc([18F])nc1)c1ccnc(NC(=O)C2CC2)c1,PET imaging,"FVB/NJ mice, both sexes, liver","intravenous, 120 min post-injection, P-gp inhibited, together with: tariquidar 15 mg/kg iv, 2 h before",,SUV,5.02
CNC(=O)C[C@H](Cc1ccc(C#N)cc1)NC(=O)c1cc(-c2ccc(CN[C@H](C)c3ccc(C)cc3)o2)ccc1Cl,,human liver microsomes,1 µM,,blood clearance,20 mL/min/kg

# Excerpt of the above:
SMILES,assay,system,conditions,scale,endpoint,value
CCn1nc(Cl)c2c1-c1cnc(N)c(c1)O[C@H](C)c1cc(F)ccc1-c1nn(C)cc1C2,,"Balb/c nude mouse, female, plasma","0.5 mg/kg, single dose, 1 h",,free plasma concentration,6.87 nM
O=C(Nc1cnccc1-c1ccc([18F])nc1)c1ccnc(NC(=O)C2CC2)c1,PET imaging,"FVB/NJ mice, both sexes, liver","intravenous, 120 min post-injection, P-gp inhibited, together with: tariquidar 15 mg/kg iv, 2 h before",,SUV,5.02
CNC(=O)C[C@H](Cc1ccc(C#N)cc1)NC(=O)c1cc(-c2ccc(CN[C@H](C)c3ccc(C)cc3)o2)ccc1Cl,,human liver microsomes,1 µM,,blood clearance,20 mL/min/kg
